Assay results collected from several papers.
Numbers after ± are the reported error. Values after ≈ are worked out from the molar mass of the structure shown.

C=C(NC(=O)C(=C)NC(=O)c1csc(C2=NC3c4csc(n4)C4NC(=O)c5csc(n5)C(C(C)(O)C(C)O)NC(=O)C5CSC(=N5)C(=CC)NC(=O)C(C(C)O)NC(=O)c5csc(n5)C3(CC2)NC(=O)C(C)NC(=O)C(=C)NC(=O)C(=C)NC(=O)C(C(C)CC)NC2C=Cc3c(C(C)O)cc(nc3C2O)C(=O)OC4C)n1)C(N)=O (stereo not drawn) — MIC (Bacillus sp.; broth microdilution; ATCC 27859; 18 h, 37 °C): 0.042 mg/L
CC[C@H](C)[C@H](NC(=O)[C@H](CCCCNC(=N)N)NC(=O)[C@H](CC(N)=O)NC(=O)[C@H](CC(C)C)NC(=O)[C@H](Cc1ccccc1)NC(=O)[C@H](CCCCNC(=N)N)NC(=O)[C@H](CCCCNC(=N)N)NC(=O)[C@H](CC(C)C)NC(=O)[C@H](CC(C)C)NC(=O)[C@H](CCCCNC(=N)N)NC(=O)[C@H](CCCCNC(=N)N)NC(=O)[C@H](CC(C)C)NC(=O)CNC(C)=O)C(=O)N[C@@H](CCCCNC(=N)N)C(=O)N[C@@H](CCCCNC(=N)N)C(N)=O — MIC (Citrobacter freundii; bacterial growth, broth microdilution; multidrug-resistant): 3.12 µM
CCCCCCCCC(=O)NCc1ccc(O)c(OC)c1 — IC50 (mAb 4-AT4; antibody binding, indirect competitive ELISA; together with: coating antigen hapten 3-OVA): 0.0416 mg/L (≈ 0.142 µM)
CN[C@@H]1[C@H](O)[C@H](NC)[C@H]2O[C@]3(O)[C@H](O[C@@H]2[C@H]1O)O[C@H](C)C[C@@]3(O)CNCc1ccc(F)cc1 — MIC (Streptococcus pneumoniae; OVA2 drug resistant): 3 mg/L
CC[C@@H](C)[C@@H](NC(=O)[C@@H](C)NC(=O)[C@@H](CCCCN)NC(=O)[C@@H](CC(C)C)NC(=O)[C@@H](C)NC(=O)[C@H](NC(=O)[C@@H](Cc1c[nH]cn1)NC(=O)[C@@H](CC(C)C)NC(=O)[C@H](NC(=O)[C@H](NC(=O)[C@@H](CCCCN)NC(=O)[C@@H](CCCCN)NC(=O)[C@@H](C)NC(=O)[C@@H](CO)NC(=O)[C@@H](CCCCN)NC(=O)[C@@H](Cc1ccccc1)NC(=O)[C@H](NC(=O)[C@@H](CCCCN)NC(=O)[C@@H](CC(C)C)NC(=O)[C@@H](Cc1ccccc1)NC(=O)[C@@H](CO)NC(=O)[C@@H](CCCCN)NC(=O)[C@@H](Cc1c[nH]c2ccccc12)NC(=O)[C@@H](CCCCN)NC(C)=O)[C@H](C)O)[C@H](C)O)C(C)C)[C@H](C)O)C(=O)N[C@H](CO)C(=O)N[C@H](CO)C(N)=O — MIC (Acinetobacter baumannii; 985, Mueller-Hinton broth; 24 h, 37 °C): 0.8 µM
N=C(N)NCCC[C@@H]1NC(=O)[C@H](CCCCNC(=O)CC[C@H](NC(=O)CCOCCOCCOCCOCCNC(=O)CN2CCN(CC(=O)O)CCN(CC(=O)O)CCN(CC(=O)O)CC2)C(=O)NCCCC[C@@H]2NC(=O)[C@@H](Cc3ccccc3)NC(=O)[C@H](CC(=O)O)NC(=O)CNC(=O)[C@H](CCCNC(=N)N)NC2=O)NC(=O)[C@@H](Cc2ccccc2)NC(=O)[C@H](CC(=O)O)NC(=O)CNC1=O [indium-111 labelled] — tissue uptake (female athymic nude mice, eyes; intravenous, 3 µCi, 4 h, U-87 MG glioma xenograft): 0.62 ± 0.22 %ID/g
C[C@@H](c1ccn(Cc2ccc(Cl)c(Cl)c2)n1)[C@](O)(Cn1cnnn1)c1ccc(F)cc1F — MIC (Candidozyma auris; growth; 791 drug-resistant isolate; 24 h, 30 °C, ≥50% inhibition): 8 mg/L
CC[C@H](C)[C@H](NC(=O)[C@H](CCCCN)NC(=O)[C@H](CCCCN)NC(=O)[C@H](Cc1ccccc1)NC(=O)[C@H](Cc1ccccc1)NC(=O)[C@H](CCCCN)NC(=O)[C@H](CCCCN)NC(=O)[C@H](Cc1ccccc1)NC(=O)[C@H](CCCNC(=N)N)NC(=O)[C@@H](N)CCCCN)C(=O)N[C@@H](CCCCN)C(=O)N[C@@H](CCCCN)C(=O)N[C@@H](CO)C(=O)N[C@H](C(=O)N[C@@H](CCCCN)C(=O)N[C@@H](CCCCN)C(=O)N[C@@H](CCCNC(=N)N)C(=O)N[C@H](C(=O)N[C@@H](CCCCN)C(=O)N[C@@H](CCCCN)C(=O)N[C@@H](CC(C)C)C(=O)N[C@@H](Cc1ccccc1)C(=O)N[C@@H](CCCCN)C(=O)N[C@@H](CCCCN)C(=O)N1CCC[C@H]1C(=O)N[C@@H](CCCNC(=N)N)C(=O)N[C@H](C(=O)N[C@H](C(=O)N1CCC[C@H]1C(=O)N[C@H](C(=O)N[C@@H](CO)C(=O)N[C@H](C(=O)N1CCC[C@H]1C(=O)N[C@@H](Cc1ccccc1)C(=O)O)[C@@H](C)CC)[C@@H](C)CC)[C@@H](C)CC)C(C)C)C(C)C)C(C)C — MIC (Escherichia coli, Pseudomonas aeruginosa, Klebsiella pneumoniae, Acinetobacter baumannii; clinical isolates; upper value for all): 4 mg/L
[O-][N+]1=C(c2ccccc2)C2=NCCCN2c2ncccc21 — MIC (Clostridium sporogenes; microbial growth; ATCC3584): 0.25 mg/L
C[C@@H](c1ccn(Cc2ccc(I)cc2)n1)[C@](O)(Cn1cnnn1)c1ccc(F)cc1F — MIC (Candidozyma auris; growth; 791 drug-resistant isolate; 24 h, 30 °C, ≥50% inhibition): 1 mg/L
[O-][N+]1=C(c2ccc(Cl)cc2)C2=NCCCCN2c2ccccc21 — MIC (Clostridium sporogenes; microbial growth; ATCC3584): 1 mg/L
CC(=O)NC(Cc1ccc(Br)c(Cl)c1)C(=O)N[C@@H](C)C(=O)N1CCC[C@H]1C(=O)N1CCC[C@H]1C(=O)N[C@@H](CCC(=O)O)C(=O)N[C@@H](Cc1c[nH]cn1)C(=O)N[C@@H](CO)C(=O)N[C@H](C(=O)N[C@@H](C)C(N)=O)[C@@H](C)OP(=O)(O)O (stereo partly drawn) — inhibition (MET (Homo sapiens, UniProt P08581); 10 µM): 2.82 ± 0.14%
CCCCCCCCCCCCCC(=O)N[C@H](CCN)C(=O)N[C@@H]1C(=O)N[C@@H](CCN)C(=O)N[C@@H](CC(C)C)C(=O)N[C@@H](CCN)C(=O)N[C@H](Cc2ccccc2)C(=O)N[C@@H](CC(C)C)C(=O)N[C@@H](CCN)C(=O)N[C@H](CCN)C(=O)N[C@@H](C(C)C)C(=O)N[C@@H](CC(=O)O)C(=O)O[C@@H]1C — MIC (fungal pathogens; highest concentration tested, inactive): > 64 mg/L
Cc1ccc(C2OC(c3ccc(C)cc3)C(C)C(=NOCc3cn(-c4ccccc4)nn3)C2C)cc1 (stereo not drawn) — MIC (Rhizopus; 72 to 96 h): 25 mg/L
CN[C@](C)(C[18F])C(=O)O — tracer uptake (A549 tumour model; host not given, lung; 30 min, tumour-bearing): 2.8 %ID/g
CC[C@H](C)[C@H](NC(=O)CNC(=O)[C@H](CCCCN)NC(=O)[C@H](C)NC(=O)[C@H](CCC(=O)O)NC(=O)[C@H](Cc1ccccc1)NC(=O)[C@H](CO)NC(=O)[C@H](CC(C)C)NC(=O)[C@@H](NC(=O)[C@H](CC(=O)O)NC(=O)[C@H](C)NC(=O)[C@@H](NC(=O)[C@@H](N)C(C)C)[C@@H](C)O)C(C)C)C(=O)N[C@@H](C)C(=O)N[C@H](C(=O)N[C@@H](CC(N)=O)C(=O)N[C@@H](Cc1c[nH]cn1)C(=O)N[C@@H](CO)C(=O)N[C@@H](C)C(=O)N[C@H]1CSSC[C@@H]2NC(=O)[C@H](C(C)C)NC(=O)CNC(=O)[C@H](CC(N)=O)NC(=O)[C@H](CCC(N)=O)NC(=O)[C@H](C)NC(=O)[C@H](CO)NC(=O)CNC(=O)CNC(=O)[C@H](CCCCN)NC(=O)[C@H](CCCCN)NC(=O)[C@H](CCCNC(=N)N)NC(=O)[C@H](CC(C)C)NC(=O)[C@H](C)NC(=O)[C@H]([C@@H](C)CC)NC(=O)[C@H](CSSC[C@@H](C(=O)N[C@@H](CCCNC(=N)N)C(=O)N[C@@H](CC(N)=O)C(=O)O)NC(=O)[C@H](C(C)C)NC2=O)NC(=O)[C@H](Cc2c[nH]cn2)NC(=O)[C@H](CC(C)C)NC(=O)[C@H](C)NC1=O)C(C)C — MIC (Trichosporon beigelii; broth microdilution; KCTC 7707; 28 °C): 25 µM
COc1cc(O)c2c(=O)c3c(O)c(-c4c(C)cc5c(c4O)C(=O)C4=C(O)C[C@H](OC)[C@@H](O)[C@]4(C)O5)c(C)cc3oc2c1OC — MIC (Colletotrichum acutatum; microbial growth; BCC): > 82.4 µM
CC(C)Oc1ccc(B(O)O)c(F)n1 — MIC (Citrobacter freundii; bacterial growth; AmpC-overproducing clinical isolate; cefotaxime alone): 8 mg/L
CCCC[C@H](NC(=O)CNC(=O)CNC(=O)c1ccc(NN)nc1)C(=O)N[C@H]1CC(=O)NCCCC[C@@H](C(N)=O)NC(=O)[C@H](Cc2c[nH]c3ccccc23)NC(=O)[C@H](CCCNC(=N)N)NC(=O)[C@@H](Cc2ccccc2)NC(=O)[C@H](Cc2c[nH]cn2)NC1=O [technetium-99m labelled] — tissue uptake (C57 mouse, B16/F1 melanoma-bearing, stomach; intravenous, 24 h): 0.06 ± 0.03 %ID/g
CC[C@H](C)[C@H](NC(=O)[C@H](C)NC(=O)CNC(=O)[C@@H](N)CCSC)C(=O)N[C@@H](C)C(=O)N[C@@H](CCCCN)C(=O)N[C@@H](CC(C)C)C(=O)N[C@H](C(=O)N[C@@H](C)C(=O)N[C@@H](CCCCN)C(=O)N[C@@H](Cc1ccccc1)C(=O)NCC(=O)N[C@@H](Cc1c[nH]c2ccccc12)C(=O)N1CCC[C@H]1C(=O)N[C@@H](Cc1ccccc1)C(=O)N[C@H](C(=O)N[C@@H](CCCCN)C(=O)N[C@@H](CCCCN)C(=O)N[C@@H](Cc1ccccc1)C(=O)N[C@@H](Cc1ccc(O)cc1)C(=O)N[C@@H](CCCCN)C(=O)N[C@@H](CCC(N)=O)C(=O)N[C@H](C(=O)N[C@@H](CCSC)C(=O)N[C@@H](CCC(N)=O)C(=O)N[C@@H](Cc1ccccc1)C(=O)N[C@H](C(=O)NCC(=O)N[C@@H](CCC(N)=O)C(=O)NCC(=O)N[C@@H](Cc1c[nH]c2ccccc12)C(=O)N[C@H](C(=O)N[C@H](C(=O)N[C@@H](CC(=O)O)C(=O)N[C@@H](CCC(N)=O)C(=O)N[C@H](C(=O)N[C@@H](CCC(=O)O)C(=O)N[C@@H](CCCCN)C(=O)N[C@@H](Cc1c[nH]c2ccccc12)C(=O)N[C@@H](CC(C)C)C(=O)N[C@@H](CCCCN)C(=O)N[C@@H](CCCNC(=N)N)C(=O)N[C@@H](Cc1c[nH]cn1)C(=O)O)[C@@H](C)CC)[C@@H](C)CC)[C@@H](C)O)[C@@H](C)CC)[C@@H](C)CC)[C@@H](C)CC)C(C)C — MIC (Bacillus subtilis subsp. subtilis; ATCC 23857; 10 h): 10.6 ± 0.1 µM
N=C(N)NCCC[C@@H]1NC(=O)[C@H](CCCCNC(=O)CCOCCOCCOCCOCCNC(=O)CN2CCN(CC(=O)O)CCN(CC(=O)O)CCN(CC(=O)O)CC2)NC(=O)[C@@H](Cc2ccccc2)NC(=O)[C@H](CC(=O)O)NC(=O)CNC1=O [indium-111 labelled] — tissue uptake (female athymic nude mice, heart; intravenous, 3 µCi, 1 h, U-87 MG glioma xenograft): 0.4 ± 0.03 %ID/g
CN[C@@H]1[C@H](O)[C@H](NC)[C@H]2O[C@]3(O)[C@H](O[C@@H]2[C@H]1O)O[C@H](C)C[C@@]3(O)CNCc1ccccc1 — MIC (Streptococcus pneumoniae; D39X drug sensitive): 3 mg/L
COc1ccc(C2=[N+]([O-])c3ccccc3N3CCCN=C23)cc1 — MIC (Prevotella intermedia/nigrescens; ATCC 25611): 1 mg/L
CCN(Cc1ccccc1)C(=O)CCc1nc(CN2CCN(C(=O)Cc3ccc(OC)c(OC)c3)CC2)no1 — V1/2 of activation (KCNQ5 (Homo sapiens, UniProt Q9NR82); whole-cell patch clamp; transfected cells; 100 nM): -44.8 ± 3.01 mV
COc1ccc(C2=[N+]([O-])c3ccccc3N3CCN=C23)cc1 — MIC (Prevotella intermedia/nigrescens; ATCC 25611): ≤ 0.06 mg/L
CC[C@H](C)[C@H](NC(=O)[C@@H](N)C(C)C)C(=O)N[C@@H](Cc1c[nH]cn1)C(=O)N[C@@H](CCCNC(=N)N)C(=O)N[C@@H](C)C(=O)NCC(=O)N[C@@H](CC(C)C)C(=O)N[C@@H](CCC(N)=O)C(=O)N[C@@H](Cc1ccccc1)C(=O)N1CCC[C@H]1C(=O)N[C@H](C(=O)NCC(=O)N[C@@H](CCCNC(=N)N)C(=O)N[C@H](C(=O)N[C@@H](Cc1c[nH]cn1)C(=O)N[C@@H](CCCNC(=N)N)C(=O)N[C@@H](CC(C)C)C(=O)N[C@@H](CC(C)C)C(=O)N[C@@H](CCCNC(=N)N)C(=O)N[C@@H](CCCCN)C(N)=O)C(C)C)C(C)C — MIC (Enterobacter aerogenes; ATCC 13048; 18 to 20 h): > 32 µM
CCCCCCCCCCOCc1cn(CC2=CC[C@@H]3C(C(=O)OC)=CO[C@@H](OC(C)=O)[C@H]23)nn1 — viability (SK-N-SH; neuroprotection, MTT; 0.15 µM, 24 h, together with: 250 µM H2O2): 58.2 ± 0.3%
